Measured values from different studies.
Each line is one published result; not all experiments were run side by side.
EGFR A750P/del747-749: Epidermal growth factor receptor (EGFR, Homo sapiens, UniProt P00533, A750P/del747-749)
EGFR L858R: Epidermal growth factor receptor (EGFR, Homo sapiens, UniProt P00533, L858R)
EGFR: Epidermal growth factor receptor (EGFR, Homo sapiens, UniProt P00533)
EGFR del747-752/P753S: Epidermal growth factor receptor (EGFR, Homo sapiens, UniProt P00533, del747-752/P753S)

C[C@@H](c1ccc(-n2cnc3c(N)ncnc32)cc1)N1CCc2nn(C)c(Cc3ccccc3)c2C1=O
remaining binding (EGFR A750P/del747-749; KINOMEscan; 0.1 µM; reference: DMSO control): 99%

CCOc1cc(N2CCN(C)CC2)ccc1Nc1nc(N)n(C(=O)NCc2ccccc2S(=O)(=O)C(C)C)n1
remaining activity (EGFR L858R; enzyme activity; 10 µM; reference: control): 10%

CC(C)Cc1ccc(-c2nn(-c3ccc(S(C)(=O)=O)cc3)cc2/C=N/N=c2\[nH]c(-c3ccc([N+](=O)[O-])cc3)cs2)cc1
inhibition (EGFR L858R; kinase activity, inhibitor; 0.1 µM): 47%

C=CC(=O)N1CCC(COCC(=O)N2CCN(c3nc(-c4cnc(N)nc4C(F)F)nc(N4CCOC[C@@H]4C)n3)CC2)CC1
remaining binding (EGFR A750P/del747-749; KINOMEscan; 1 µM; reference: DMSO control): 93%

COc1ccc(-c2nn(-c3ccc(S(C)(=O)=O)cc3)cc2/C=N/N=c2\[nH]c(-c3ccc(Br)cc3)cs2)cc1
inhibition (EGFR; kinase activity, inhibitor; 1 µM): 70.3%

COc1cc(N2CCN(C)CC2)ccc1Nc1nc(N)n(C(=O)NCc2ccccc2S(=O)(=O)C(C)C)n1
remaining activity (EGFR del747-752/P753S; enzyme activity; 10 µM; reference: control): 4.4%

COc1ccc(-c2nn(-c3ccc(S(C)(=O)=O)cc3)cc2C=N/N=c2\[nH]c(-c3ccc([N+](=O)[O-])cc3)cs2)cc1
inhibition (EGFR; kinase activity, inhibitor; 0.01 µM): 27.4%

C=CC(=O)N1CCC(C(=O)NCC(=O)N2CCN(c3nc(-c4cnc(N)nc4C(F)F)nc(N4CCOCC4)n3)CC2)CC1
remaining binding (EGFR del747-752/P753S; KINOMEscan; 1 µM): 82%

COc1cc(N2CCN(C)CC2)ccc1Nc1nc(N)n(C(=S)NCc2c(Cl)cccc2Cl)n1
remaining activity (EGFR L858R; enzyme activity; 10 µM; reference: control): 0.6%

[2H]c1cc(C)c(NC(=O)c2cnc(Nc3cc(N4CCCCC4)nc(C)n3)s2)c(Cl)c1
inhibition (EGFR (Homo sapiens, UniProt P00533, del746-750); 0.01 µM): < 30%

COc1cc(N2CCN(C)CC2)ccc1Nc1nc(N)n(C(=O)NCc2c(Cl)cccc2Cl)n1
remaining activity (EGFR del747-752/P753S; enzyme activity; 10 µM; reference: control): 9.6%

O=C(NC1CCC1)c1ccc2nc(-c3cccc(NS(=O)(=O)NCCN4CCCCC4)c3)cn2c1
remaining activity (EGFR (Homo sapiens, UniProt P00533, del752-759); enzyme activity; 10 µM): 100%

For quick reference, copied from above:
COc1ccc(-c2nn(-c3ccc(S(C)(=O)=O)cc3)cc2C=N/N=c2\[nH]c(-c3ccc([N+](=O)[O-])cc3)cs2)cc1
inhibition (EGFR; kinase activity, inhibitor; 0.01 µM): 27.4%
